Published values of several laboratories.
± gives the spread as reported.

`O=c1c(OCc2ccccc2)c(-c2ccc(Cl)cc2)oc2ccccc12` — result for “serum HDL cholesterol”: 45.3 ± 2.14 mg/dL (diabetic rat; 5 mg/kg, 28 days, p-nitrophenyl β-glucoside induced).
Under “creatine kinase activity”, `O=C(C=Cc1ccc(O)c(O)c1)OC1CC(O)(C(=O)O)CC(O)C1OC(=O)C=Cc1ccc(O)c(O)c1` (stereo not shown) is recorded as “decreased” (decreased; Kunming mice, isoprenaline-induced myocardial infarction, serum; intravenous, 30 mg/kg daily for 7 days, day 7; baseline: model group).
`[2H]C([2H])([2H])C(c1cc2nnc(-c3cc(F)ccc3F)n2nc1OCc1ncnn1C)(C([2H])([2H])[2H])C([2H])([2H])[2H]`: “seizure severity change” -3.8 (amygdala-kindled Wistar rats; oral, 30 mg/kg, 2 h before stimulation, Racine scale, unit not given; baseline: baseline).
`CCC1CC2C(C)=CC3C(=O)CCCC3C=CC(C)=CC2C(=O)O1` (stereo not shown): “Aβ plaque number reduction” 18.9% (thioflavin S staining; 5XFAD transgenic mouse, hippocampus; oral gavage, 30 mg/kg/day, 5 days; baseline: untreated).
`Cc1ccc(-c2oc3ccccc3c(=O)c2OCc2ccccc2)cc1` — result for “serum alanine aminotransferase”: 38.2 ± 2.61 IU (diabetic rat; 5 mg/kg, p-nitrophenyl β-glucoside induced).
`CC(C)(O)c1ccc(N2Cc3c(ccnc3-c3ccc(F)cc3OCC(F)(F)F)C2=O)cc1` has a glucosylsphingosine level of 89 ± 7% (Gaucher disease mouse model, brain; 10 mg/kg, single dose; baseline: vehicle).
`Cc1cc(O)c(C=O)c2c1C(=O)Oc1c(CO)c(O)c3c(c1O2)C(O)OC3=O` (stereo not shown): “reactive oxygen species level” “decreased” (streptozotocin-diabetic male albino rats, serum; dose not given, 9 weeks; baseline: diabetic control).
`CCCCCCCCCCCCCCCC(=O)N[C@@H](CCC(=O)NCCCC[C@H](NC(=O)[C@H](CC(=O)O)NC(=O)[C@H](CO)NC(=O)[C@@H](NC(=O)[C@H](Cc1ccccc1)NC(=O)[C@@H](NC(=O)CNC(=O)[C@H](CCC(N)=O)NC(=O)[C@H](CO)NC(=O)[C@@H](N)Cc1c[nH]cn1)[C@@H](C)O)[C@@H](C)O)C(=O)N[C@@H](CO)C(=O)N[C@@H](CCC(=O)O)C(=O)N[C@@H](Cc1ccc(O)cc1)C(=O)N[C@@H](CC(C)C)C(=O)N[C@@H](CC(=O)O)C(=O)N[C@@H](CO)C(=O)N[C@@H](CCC(=O)O)C(=O)N[C@@H](CCCNC(=N)N)C(=O)N[C@@H](C)C(=O)N[C@@H](CCCNC(=N)N)C(=O)N[C@@H](CC(=O)O)C(=O)N[C@@H](Cc1ccccc1)C(=O)N[C@H](C(=O)N[C@@H](C)C(=O)N[C@@H](Cc1c[nH]c2ccccc12)C(=O)N[C@@H](CC(C)C)C(=O)N[C@@H](CCC(=O)O)C(=O)N[C@@H](C)C(=O)NCC(=O)NCC(=O)O)C(C)C)C(=O)O` — result for “body weight loss”: 11% (male cynomolgus monkey; subcutaneous, 27 nmol/kg/day for 8 weeks, day 57; baseline: starting body weight).
Under “hot plate latency”, `COc1c2c(cc3oc(C)cc(=O)c13)O[C@H](C(C)(C)O[C@@H]1O[C@H](CO)[C@@H](O)[C@H](O)[C@H]1O)C2` is recorded as 8.88 ± 1.35 s (analgesic effect; Kunming mouse, female; oral, 2 mg/kg, 0 h, 55 °C, before dosing, 30 s cut-off).
Under “whole-body lean mass”, `CC[C@H]1[C@@H](O)[C@@H]2[C@H](CC[C@]3(C)[C@@H]([C@H](C)CCOS(=O)(=O)[O-])CC[C@@H]23)[C@@]2(C)CC[C@@H](O)C[C@@H]12.[Na+]` is recorded as 17.2 ± 0.2 g (EchoMRI; ob/ob NASH mouse model; oral, 10 mg/kg once daily, 8 weeks).
`Cc1cc2c(cc1C1(c3ncc(C(=O)O)cn3)CC1)C(C)(C)CCC2(C)C`: “log2 fold change” 0.11 (RNA sequencing, refers to: Lrrc4c mRNA; rat, brain; dose not given, 24 h, single dose; baseline: vehicle).
For `CC(C)CCC[C@@H](C)[C@H]1CCC([C@@H]2CC[C@H]3C[C@H](O)CC[C@]3(C)[C@H]2O)[C@]1(C)CC(=O)O` (stereo partly shown), “Tgr5 mRNA level” read “no effect” (C57BL/6J male mice, antibiotic-treated, ileum; oral gavage, 10 mg/kg, together with: taurocholic acid 400 mg/kg).
Under protein level, `CCOP(=O)(CC(=O)Nc1ccc(S(=O)(=O)N(CC(N)=O)c2ccc(N(CC(N)=O)S(=O)(=O)c3ccc(OC)cc3)c3ccccc23)cc1)OCC` is recorded as “decreased” (western blot, refers to: phospho-tau; APP/PS1 mice, hippocampus and frontal cortex; 40 mg/kg).
For `C=CC(=O)N1C[C@H](C)N(c2nc(OC[C@@]34CCCN3C[C@H](F)C4)nc3c(F)c(-c4ccc(F)c5sc(N)c(C#N)c45)c(C(F)(F)F)cc23)C[C@H]1C`, the pERK inhibition was 92% (mouse, MIA PaCa-2 Matrigel plug; oral, 30 mg/kg single dose, 6 h).
For `CN(C)c1ccc(-c2oc3ccccc3c(=O)c2OCc2ccccc2)cc1`, “serum total cholesterol” read 130 ± 4.66 mg/dL (diabetic rat; 7.5 mg/kg, 28 days, p-nitrophenyl β-glucoside induced).
For `CCCC[C@H](NC(=O)[C@@H](NC(=O)[C@H](CC(=O)O)NC(=O)[C@H](CCC(N)=O)NC(=O)[C@H](CC(C)C)NC(=O)[C@H](CC(C)C)NC(=O)[C@H](CCCN)NC(=O)[C@H](CCCNC(=N)N)NC(=O)[C@H](C)NC(=O)[C@H](CO)NC(=O)[C@H](CC(C)C)NC(=O)[C@H](CCC(N)=O)NC(=O)[C@H](CC)NC(=O)[C@H](CC(C)C)NC(=O)[C@@H](NC(=O)[C@H](CCCN)NC(=O)[C@H](CCCNC(=N)N)NC(=O)[C@H](Cc1ccc(O)cc1)NC(=O)[C@H](CO)NC(=O)[C@H](CCC(N)=O)NC(=O)[C@@H](NC(=O)[C@H](Cc1ccccc1)NC(=O)[C@@H](NC(=O)[C@H](C)NC(=O)[C@H](CC(=O)O)NC(=O)[C@@H](C)NC(=O)[C@H](Cc1ccc(O)cc1)NC)[C@@H](C)CC)[C@@H](C)O)C(C)C)[C@@H](C)CC)C(=O)N[C@@H](CC(=O)O)C(=O)N[C@@H](CCCNC(=N)N)C(=O)NCCCCC(N)=O`, “serum GH level” read 226 ± 19.8 ng/mL (GH release, ELISA; male Sprague-Dawley rat, anaesthetised, serum; subcutaneous, 3 µg/kg, 30 min).
`COc1ccc2c(c1)c(CC(=O)OCOC(C)=O)c(C)n2C(=O)c1ccc(Cl)cc1` gave an analgesia of 67.5% (acetic acid writhing test; BALB/c mouse; intraperitoneal, 20 mg/kg; baseline: negative control).
For `COc1cc(C(=O)OCCCN2CCCN(CCCOC(=O)c3cc(OC)c(OC)c(OCc4ccc([N+](=O)[O-])cc4)c3)CC2)cc(OC)c1OC`, “formalin pain phase 1” read “no effect” (licking and flinching; mouse, both sexes, formalin pain; intrathecal, 1 to 100 nmol).
For `CCCC[C@H](NC(=O)[C@@H](NC(=O)[C@H](CC(=O)O)NC(=O)[C@H](CCC(N)=O)NC(=O)[C@H](CC(C)C)NC(=O)[C@H](CC(C)C)NC(=O)[C@H](CCCN)NC(=O)[C@H](CCCNC(=N)N)NC(=O)[C@H](C)NC(=O)[C@H](CO)NC(=O)[C@H](CC(C)C)NC(=O)[C@H](CCC(N)=O)NC(=O)[C@H](CC)NC(=O)[C@H](CC(C)C)NC(=O)[C@@H](NC(=O)[C@H](CCCN)NC(=O)[C@H](CCCNC(=N)N)NC(=O)[C@H](Cc1ccc(O)cc1)NC(=O)[C@H](CO)NC(=O)[C@H](CCC(N)=O)NC(=O)[C@@H](NC(=O)[C@H](Cc1ccccc1)NC(=O)[C@@H](NC(=O)[C@H](C)NC(=O)[C@H](CC(=O)O)NC(=O)[C@H](C)NC(=O)CCc1ccc(O)cc1)[C@@H](C)CC)[C@@H](C)O)C(C)C)[C@@H](C)CC)C(=O)N[C@@H](CC(=O)O)C(=O)NCCCCNC(=N)N`, “serum GH level” read 33.2 ± 2.8 ng/mL (GH release, ELISA; male Sprague-Dawley rat, anaesthetised, serum; subcutaneous, 3 µg/kg, 0 min).
For `CCCCCCOC(=O)Cc1c(C)n(C(=O)c2ccc(Cl)cc2)c2ccc(OC)cc12`, the writhing count was 11.5 ± 0.76 (BALB/c mice, acetic acid writhing; intraperitoneal, 20 mg/kg, 20 min count).
For `CCCCOc1nc(N)c2[nH]c(=O)n(CCCN(CCCN3CCOCC3)Cc3cccc(CC(=O)OC)c3)c2n1`, “duration of effect” read ≤ 5 days (rat, Brown Norway, ovalbumin-sensitised; single dose).
For `CCCC[C@H](NC(=O)[C@@H](NC(=O)[C@H](CC(=O)O)NC(=O)[C@H](CCC(N)=O)NC(=O)[C@H](CC(C)C)NC(=O)[C@H](CC(C)C)NC(=O)[C@H](CCCN)NC(=O)[C@H](CCCNC(=N)N)NC(=O)[C@H](C)NC(=O)[C@H](CO)NC(=O)[C@H](CC(C)C)NC(=O)[C@H](CCC(N)=O)NC(=O)[C@H](CC)NC(=O)[C@H](CC(C)C)NC(=O)[C@@H](NC(=O)[C@H](CCCN)NC(=O)[C@H](CCCNC(=N)N)NC(=O)[C@H](Cc1ccc(O)cc1)NC(=O)[C@H](CO)NC(=O)[C@H](CCC(N)=O)NC(=O)[C@@H](NC(=O)[C@H](Cc1ccccc1)NC(=O)[C@@H](NC(=O)[C@H](C)NC(=O)[C@H](CC(=O)O)NC(=O)[C@@H](C)NC(=O)[C@H](Cc1ccc(O)cc1)N(C)C(C)=O)[C@@H](C)CC)[C@@H](C)O)C(C)C)[C@@H](C)CC)C(=O)N[C@@H](CC(=O)O)C(=O)NCCCCNC(=N)N`, “serum GH level” read 90.8 ± 20.3 ng/mL (GH release, ELISA; male Sprague-Dawley rat, anaesthetised, serum; subcutaneous, 3 µg/kg, 15 min).

Repeated from above:
`CC(C)(O)c1ccc(N2Cc3c(ccnc3-c3ccc(F)cc3OCC(F)(F)F)C2=O)cc1` has a glucosylsphingosine level of 89 ± 7% (Gaucher disease mouse model, brain; 10 mg/kg, single dose; baseline: vehicle).
`Cc1cc(O)c(C=O)c2c1C(=O)Oc1c(CO)c(O)c3c(c1O2)C(O)OC3=O` (stereo not shown): “reactive oxygen species level” “decreased” (streptozotocin-diabetic male albino rats, serum; dose not given, 9 weeks; baseline: diabetic control).
`CCCCCCCCCCCCCCCC(=O)N[C@@H](CCC(=O)NCCCC[C@H](NC(=O)[C@H](CC(=O)O)NC(=O)[C@H](CO)NC(=O)[C@@H](NC(=O)[C@H](Cc1ccccc1)NC(=O)[C@@H](NC(=O)CNC(=O)[C@H](CCC(N)=O)NC(=O)[C@H](CO)NC(=O)[C@@H](N)Cc1c[nH]cn1)[C@@H](C)O)[C@@H](C)O)C(=O)N[C@@H](CO)C(=O)N[C@@H](CCC(=O)O)C(=O)N[C@@H](Cc1ccc(O)cc1)C(=O)N[C@@H](CC(C)C)C(=O)N[C@@H](CC(=O)O)C(=O)N[C@@H](CO)C(=O)N[C@@H](CCC(=O)O)C(=O)N[C@@H](CCCNC(=N)N)C(=O)N[C@@H](C)C(=O)N[C@@H](CCCNC(=N)N)C(=O)N[C@@H](CC(=O)O)C(=O)N[C@@H](Cc1ccccc1)C(=O)N[C@H](C(=O)N[C@@H](C)C(=O)N[C@@H](Cc1c[nH]c2ccccc12)C(=O)N[C@@H](CC(C)C)C(=O)N[C@@H](CCC(=O)O)C(=O)N[C@@H](C)C(=O)NCC(=O)NCC(=O)O)C(C)C)C(=O)O` — result for “body weight loss”: 11% (male cynomolgus monkey; subcutaneous, 27 nmol/kg/day for 8 weeks, day 57; baseline: starting body weight).
